Published values collected from several papers.
Each line is one published result; not all experiments were run side by side. ± marks the error that the study gave. Bridges are numbered along the chain shown (N, C = ends). Where no end group is shown, it is not given here.
B1: UGT1A9 (Homo sapiens, UniProt O60656); chain GKLLVVPMDGSHWFTMRSVVEKLILRGHEVVVVMPEVSWQLGRSLNCTVKTYSTSYTLEDLDREFKAFAHAQWKAQVRSIYSLLMGSYNDIFDLFFSNCRSLFKDKKLVEYLKESSFDAVFLDPFDNCGLIVAKYFSLPSVVFARGILCHYLEEGAQCPAPLSYVPRILLGFSDAMTFKERVRNHIMHLEEHLLCHRFFKNALEIASEILQTPVTEYDLYSHTSIWLLRTDFVLDYPKPVMPNMIFIGGINCHQGKPLPMEFEAYINASGEHGIVVFSLGSMVSEIPEKKAMAIADALGKIPQTVLWRYTGTRPSNLANNTILVKWLPQNDLLGHPMTRAFITHAGSHGVYESICNGVPMVMMPLFGDQMDNAKRMETKGAGVTLNVLEMTSEDLENALKAVINDKSYKENIMRLSSLHKDRPVEPLDLAVFWVEFVMRHKGAPHLRPAAHDLTWYQYHSLDVIGFLLAVVLTVAFITFKCCAYGYRKCLGKKGRVKKAHKSKTH

CC1(C)C2CCC1(C)C(OC(=O)C(O)Cc1ccc(O)c(O)c1)C2 (centres unmarked) — brain MDA level (C57BL/6 mouse, cerebral ischemia-reperfusion; iv, 12 mg/kg; relative to: untreated model): decreased
CCN(CC)c1ccc(/C=C2\NC(=O)NC2=O)cc1 — glycogen content (Sprague Dawley rats, liver; ip, 5, 15, 25 mg/kg; relative to: vehicle): increased
CC1CNc2c(cccc2S(=O)(=O)N[C@@H](CCCNC(=N)N)C(=O)N2CC[C@@H](C)C[C@@H]2C(=O)O)C1 (some centres unmarked) — EC50 (platelet activation, inhibitor, ATP release; human platelet-rich plasma; 20% plasma, with: thrombin): 33 nM
CC[C@@H](C(=O)Nc1ccc(C(N)=O)c(F)c1)n1cc(OC)c(-c2cc(Cl)ccc2-n2cc(C(F)(F)F)nn2)cc1=O — thrombus weight (New Zealand White rabbit, FeCl2 jugular injury; intravenous, 6 mg/kg): 0.6 mg
Polymyxin B — IL-10 release (human whole blood; 500 ng/mL, 4 h, 37 °C, with: E. coli LPS 0.5 ng/mL; relative to: LPS without compound): 32.5 ± 15.8%
insulin lispro — total glucose infused (euglycemic clamp; obese type 2 diabetes patients; subcutaneous, 30 units): 364 mg/kg
C[C@H](NC(=O)CCc1nc2cccnc2n1Cc1ccc(OC(F)(F)F)cc1)c1ccc(Cl)cc1 — lung collagen content (C57BL/6 mouse, bleomycin fibrosis; oral, 10 mg/kg twice daily, 21 days, prophylactic): decreased
O=C1O[C@H]([C@@H](O)CO)C(O)=C1O — IC50 (ABTS scavenging, absorbance): 720 nM
C[C@H]1C[C@H]2CSC(N)=N[C@@]2(c2nc(NC(=O)c3ccc(OC(F)F)cn3)cs2)CO1 — change from baseline (refers to: CSF Aβx-40; healthy adults; 275 mg once daily, 14 days, day 15; relative to: placebo-adjusted baseline): -86.3%
AGEDPHGYFLPGQFA — maximal effective dose (neutrophil and monocyte recruitment; peptide, C57BL/6J mouse, zymosan peritonitis; ip, 1 h before zymosan): 8 pg/mouse
Cc1ccc(NC(=O)c2ccc(CN3CCN(C)CC3)cc2)cc1Nc1nccc(-c2cncc(-c3oncc3C)c2)n1 — MDS-UPDRS part III score (mild-to-moderate Parkinson's disease patients; oral, 50 mg once daily, pre-dose baseline, practically defined OFF state; direction not given): 28.2 ± 9.6
CCO[C@H](COc1ccc(C(F)(F)F)cc1)CSc1ccc(OCC(=O)O)c(C)c1 — effective dose (hepatic PPAR target gene induction; dyslipidemic Sprague-Dawley rat, liver; with: ACC inhibitor): 15 mg/kg
insulin aspart — lowest NEFA concentration (human, plasma; sc, 0.2 U/kg, with: standardized meal): 0.11 mmol/L
insulin degludec — AUC(GIR) mean estimate (euglycaemic clamp; healthy human subjects; subcutaneous, thigh, 0.4 U/kg, 0 to 24 h): 2570 mg/kg
LIYWAST — inhibition (peptide, human polyclonal IgM RF ABR; concentration not given, 5 µg/mL mAb II-481 coated, with: RF at 50% max binding concentration): 4%
Cc1ccc(NC(=O)c2ccc(CN3CCN(C)CC3)cc2)cc1Nc1nccc(-c2cccnc2)n1 — reduction in mPAP (rat, SU5416/hypoxia PAH model; oral, 15.0 mg/kg once daily, day 49; relative to: vehicle): 27%
CC(C)C[C@@H]1NC(=O)[C@H](CCCNC(=N)N)NC(=O)[C@H](Cc2c[nH]c3ccccc23)NC(=O)[C@H](CCCNC(=N)N)NC(=O)CNC(=O)CNC(=O)[C@H](CCCCN)NC(=O)CNC(=O)[C@H](Cc2c[nH]c3ccccc23)NC(=O)[C@H](CC(=O)O)NC(=O)[C@@H](NC(=O)[C@H](CCC(=O)O)NC(=O)[C@H](C)NC(=O)CCCC[C@@H]2SC[C@@H]3NC(=O)N[C@@H]32)CSSC[C@@H](C(=O)NCC(=O)N2CCC[C@H]2C(=O)O)NC(=O)[C@H](C)NC(=O)[C@H](CCC(=O)O)NC(=O)[C@H]([C@@H](C)O)NC(=O)[C@H](CCCCN)NC(=O)CNC(=O)[C@H](CO)NC(=O)[C@H](C)NC(=O)CNC(=O)[C@@H]2CCCN2C(=O)[C@H](Cc2c[nH]c3ccccc23)NC1=O — amyloid plaque burden (thioflavin S, Congo red; APPswe/PSEN1(A246E) mouse, young, brain hippocampus; s.c., once monthly, 5 to 12 months, without adjuvant; relative to: mock-immunized): 50 ± 7%
COCCSc1nnc(C23CC4CC(CC(C4)C2)C3)n1-c1ccccc1 — inhibition in vivo (paw oedema; rat; intraperitoneal, 40 mg/kg): 2.46%
CSCC[C@@H]1NC(=O)[C@H](CC(=O)O)NC(=O)CNC(=O)[C@H](CCCNC(=N)N)NC(=O)[C@H](C)NC(=O)[C@H](CCC(=O)O)NC(=O)[C@H](CCCNC(=N)N)NC(=O)[C@@H]2CSSC[C@@H]3NC(=O)[C@H](CO)NC(=O)[C@H]([C@@H](C)O)NC(=O)[C@@H]4CCCN4C(=O)[C@H](C)NC(=O)[C@H](Cc4c[nH]c5ccccc45)NC(=O)[C@H](CC(=O)O)NC(=O)CNC(=O)[C@H](CCCNC(=N)N)NC(=O)CNC(=O)[C@H](CCC(N)=O)NC(=O)[C@@H]4CCCN4C(=O)[C@@H](NC(=O)CNC(=O)C(C)F)CSSC[C@H](NC(=O)CNC(=O)[C@H](C)NC(=O)[C@H](CC(C)C)NC(=O)[C@H](CSSC[C@@H](C(=O)NCC(N)=O)NC(=O)[C@H]([C@@H](C)O)NC(=O)[C@H](CCCNC(=N)N)NC(=O)[C@@H]4CCCN4C1=O)NC(=O)[C@H](CC(=O)O)NC(=O)[C@H](CO)NC(=O)[C@H](CC(=O)O)NC(=O)[C@H](CCC(N)=O)NC(=O)[C@H](CO)NC3=O)C(=O)N[C@@H](C(C)C)C(=O)N2 (some centres unmarked) [fluorine-18 labelled] — reduction of tumour uptake (nude mice, U-87 MG xenograft, tumour; dose not given, 2.5 h post-injection, with: c(RGDyK) 330 µg co-injected; relative to: without blocking): ~60%
c1ccc(CNCc2ccc(CN3CCCNCCNCCCNCC3)cc2)nc1 — thrombus volume (flow chamber, confocal microscopy; human blood; 1 µM, plaque-coated, shear 600 s⁻¹): decreased
YFCHQYL — inhibition (peptide, human polyclonal IgM RF ABR; concentration not given, 5 µg/mL mAb II-481 coated, with: RF at 50% max binding concentration): 0%
O=c1[nH]cc(F)c(=O)[nH]1 — tumour growth inhibition (refers to: tumour weight; nude mouse, HeLa xenograft; intraperitoneal, 30 mg/kg, every 2 days for 20 days): 61.9%
C[C@@H]1COCCN1c1cc([C@]2(O)C[C@H]3CC[C@@H](C2)O3)c2cnn(-c3cc[nH]n3)c2n1 — fold induction (refers to: phospho-KAP1 Ser824; mouse, LoVo xenograft, tumour; 7 mg/kg daily for 7 days, 24 h after last dose; relative to: background): 8.1
cilengitide — muscularis propria thickness (Sprague-Dawley rats, ethanol control, colon; ip, 18 mg/kg/day, 42 d): 100 ± 5 µm
GKWHCTTKFPHHYCLYG (disulfide 5-14 (inferred)) (cyclic, disulfide) — fluorescence intensity (β2-AR transgenic mouse, left ventricle lysate; intravenous, 0.5 mg/kg, 4 h; relative to: nontransgenic mice): 3.13 fold
CC[C@@H]1[C@H](F)C(=O)N[C@@H]1COc1nccc2cc(C(N)=O)c(OC)cc12 — anti-dsDNA titre (BALB/c mouse pristane-induced lupus; in chow, 200 mg/kg, weeks 8 to 20, read at week 20): 8160 ± 1280 U/mL
O=C(CCc1cccc(O)c1)N1CCN(Cc2ccc(F)cc2)CC1 — pigmentation inhibition (zebrafish AB wild type, head melanin; 60 µM, 45 h, from 6 hpf): 6.83 ± 5.4%
COc1ccc(/C=C\c2cc(OC)c(OC)c(OC)c2)cc1OP(=O)(O)O — tumour weight (mouse S-180 tumour; intravenous, 20 mg/kg CA4 equivalent, 2 days after last dose, 7 days daily dosing): 0.91 ± 0.36 g
CCOc1ccc(C[C@@H](N)C(=O)N[C@@H](Cc2ccccc2)C(=O)NC2CCN(C(=N)N)CC2)cc1.O=C(O)C(F)(F)F.O=C(O)C(F)(F)F — increase in retinal thickness (SD-OCT; mouse, retina; subcutaneous osmotic pump, 1.60 mg/kg/day, 24 h, with: VEGF 100 ng/eye intravitreal; relative to: baseline): 16.5 ± 3.8 µm
Cn1cnc(C[C@H](NC(=O)[C@@H]2CCC(=O)C2)C(=O)N2CCC[C@H]2C(N)=O)c1 — sleeping time (Swiss albino mice; intravenous, 10 µmol/kg, with: pentobarbital 50 mg/kg i.p. 10 min later): 28.2 ± 1.7 min
CC(=O)Nc1ccc(C2=NNC(=O)C[C@H]2C)cc1 — increase in contraction force (guinea pig papillary muscle; up to 30 µM, without forskolin; relative to: baseline): 341 ± 82 mg
B1 (UGT1A9) — Vmax/Km (O=c1c(O)c(-c2ccccc2O)oc2ccccc12; steady-state kinetics; pH 7.4, 37 °C): 78 µL/min/mg
COc1ccc(Nc2c(-c3ccc(S(C)(=O)=O)cc3)nc3c(C)cccn23)cc1 — pain score AUC (formalin test; male Wistar rat; intraperitoneal, 40 mg/kg; relative to: control group): decreased
CC(C)C[C@H](NC(=O)[C@H](CO)NC(=O)[C@H](CCCNC(=N)N)NC(=O)[C@H](CC(=O)O)NC(=O)[C@H](CCC(=O)O)NC(=O)[C@H](C)NC(=O)[C@@H]1CCCN1C(=O)[C@H](C)NC(=O)[C@H](CCC(=O)O)NC(=O)[C@@H]1CCCN1C(=O)[C@@H]1CCCN1)C(N)=O — reduction of rotation (F344 rat, unilateral 6-OHDA lesion; intranasal, 300 µg daily, 2 weeks after lesion, with: d-amphetamine 2.5 mg/kg i.p.; relative to: vehicle): 55%
Cn1c(-c2ccc(Br)s2)nc2cc(-c3nnc(-c4cc(-c5ccc(Cl)cc5Cl)nc5ccccc45)o3)ccc21 — plasma recalcification time (human platelet-poor plasma; concentration not given): 545 s

Excerpt of the above:
AGEDPHGYFLPGQFA — maximal effective dose (neutrophil and monocyte recruitment; peptide, C57BL/6J mouse, zymosan peritonitis; ip, 1 h before zymosan): 8 pg/mouse
Cc1ccc(NC(=O)c2ccc(CN3CCN(C)CC3)cc2)cc1Nc1nccc(-c2cncc(-c3oncc3C)c2)n1 — MDS-UPDRS part III score (mild-to-moderate Parkinson's disease patients; oral, 50 mg once daily, pre-dose baseline, practically defined OFF state; direction not given): 28.2 ± 9.6
CCO[C@H](COc1ccc(C(F)(F)F)cc1)CSc1ccc(OCC(=O)O)c(C)c1 — effective dose (hepatic PPAR target gene induction; dyslipidemic Sprague-Dawley rat, liver; with: ACC inhibitor): 15 mg/kg
insulin aspart — lowest NEFA concentration (human, plasma; sc, 0.2 U/kg, with: standardized meal): 0.11 mmol/L
insulin degludec — AUC(GIR) mean estimate (euglycaemic clamp; healthy human subjects; subcutaneous, thigh, 0.4 U/kg, 0 to 24 h): 2570 mg/kg
LIYWAST — inhibition (peptide, human polyclonal IgM RF ABR; concentration not given, 5 µg/mL mAb II-481 coated, with: RF at 50% max binding concentration): 4%
